{"data": "Results from different studies", "note": "Protocols differ between the studies behind these lines. ± gives the spread as reported."}
{"Compound": "O=C1c2cccc(O)c2C(=O)c2c(O)cc(CO)cc21", "cell line": "MOLT-3", "assay": "cell growth or viability, ATP luminescence", "setting": "24 h", "IC50": "220 µM"}
{"Compound": "CO[C@@]12[C@H](COC(N)=O)C3=C(C(=O)C(C)=C(N)C3=O)N1C[C@@H]1N[C@@H]12", "cell line": "HCT-15/ADM2-2", "assay": "cell growth, XTT", "setting": "72 h", "IC50": "0.901 µg/mL"}
{"Compound": "Cc1ccc(-c2c3n(c4c(=O)[nH]nc(O)c24)CCn2cccc2-3)cc1", "cell line": "PANC-1", "assay": "cell growth or viability, MTT", "setting": "48 h", "IC50": "48.1 µM"}
{"Compound": "C=C(Br)C(=O)Nc1c(C(=O)c2cc(OC)c(OC)c(OC)c2)oc2ccc(OC)cc12", "cell line": "L1210", "assay": "cell growth or viability", "setting": "24 h", "IC50": "> 100 µM"}
{"Compound": "COC(=O)Nc1nc2ccc(C(=O)c3ccccc3)cc2[nH]1", "cell line": "LAPC4", "assay": "AR transcriptional activity, antagonist, PSA promoter luciferase", "setting": "24 h", "IC50": "8.47 µM"}
{"Compound": "COc1c(O)cc2oc3cc(O)c(CC=C(C)C)c(O)c3c(=O)c2c1CC=C(C)C", "cell line": "H1L6.1c3", "assay": "cell viability, MTT", "IC50": "26.3 ± 0.08 µM"}
{"Compound": "COc1ccc(C[C@H]2COC(=O)[C@@H]2Cc2ccc(OCCCCCC(=O)NO)c(OC)c2)cc1OC", "cell line": "CCRF-CEM", "assay": "cell growth or viability, CCK-8", "setting": "48 h", "IC50": "1.57 µM"}
{"Compound": "CCCOc1ccc(/C=C(\\C(=O)c2cc(C)[nH]c(=O)c2C(=O)N2CCCCC2)c2ccc(OCCC)cc2)cc1", "cell line": "human Fibroblast", "assay": "cell growth or viability, MTT", "setting": "72 h", "IC50": "> 10 µM"}
{"Compound": "COC(=O)c1c(-c2ccc([N+](=O)[O-])cc2)c2n(c1C(=O)OC)CCn1cccc1-2", "cell line": "PANC-1", "assay": "cell growth or viability, MTT", "setting": "48 h", "IC50": "68.3 µM"}
{"Compound": "COc1ccc(C(O)COc2ccc(-c3csc(-c4ccc(OCC(O)c5ccc(OC)c(OC)c5)cc4)n3)cc2)cc1OC (centres unmarked)", "cell line": "H460 LKB1-proficient", "assay": "mitochondrial ATP production", "IC50": "0.232 µM"}
{"Compound": "C=C(Br)C(=O)Nc1cccc(/C=C/C(=O)Nc2ccc(N3CCOCC3)cc2)c1", "cell line": "human PBMC", "assay": "cell growth or viability, MTT", "setting": "72 h", "IC50": "3.5 to 4 µM"}
{"Compound": "COc1ccccc1-c1nccc(COc2ccccc2C[C@@H](Oc2ncnc3oc(-c4ccc(F)cc4)c(-c4ccc(OCCN5CCN(C)CC5)c(Cl)c4C)c23)C(=O)O)n1", "cell line": "NCI-H929", "assay": "cell viability, MTT", "setting": "48 h, 10% CFS", "IC50": "0.024 µM"}
{"Compound": "O=c1[nH]nc(O)c2c(-c3cccc(O)c3)c3n(c12)CCn1cccc1-3", "cell line": "PANC-1", "assay": "cell growth or viability, MTT", "setting": "48 h", "IC50": "73.5 µM"}
{"Compound": "C[C@@H]1COCCN1c1nc(-c2cnc(N)c(C(F)(F)F)c2)nc2c1C[C@@H]1COCCN21", "cell line": "A2058", "assay": "In-Cell Western, refers to: phospho-Akt Ser473", "setting": "1 h", "IC50": "< 0.55 µM"}
{"Compound": "Cc1cc(C)n(C(N)=S)n1.Cc1ccc(C(C)C)cc1.[Cl][Ru][Cl]", "cell line": "NALM-6", "assay": "cell growth or viability, MTT", "setting": "48 h", "IC50": "51.6 µM"}
{"Compound": "O=C(/C=C/c1ccc(O)cc1)c1ccc(Cl)cc1", "cell line": "WRL68", "assay": "cell growth or viability, MTT", "setting": "72 h", "IC50": "18.5 µM"}
{"Compound": "COc1ccc2cc3[n+](cc2c1OCCc1cn(Cc2cc(Cl)ccc2Cl)nn1)CCc1cc2c(cc1-3)OCO2", "cell line": "HUVEC", "assay": "cell growth or viability, MTT", "IC50": "7.88 µM"}
{"Compound": "COc1cc(C(=O)c2oc3ccccc3c2NC(C)=O)cc(OC)c1OC", "cell line": "L1210", "assay": "cell growth or viability", "setting": "24 h", "IC50": "> 100 µM"}
{"Compound": "Oc1cccc(-c2nc(N3CCOCC3)c3oc4ncccc4c3n2)c1", "cell line": "IGROV-1", "assay": "AKT Ser473 phosphorylation, inhibitor, electrochemiluminescent immunoassay", "setting": "2 h", "IC50": "0.018 ± 0.002 µM"}
{"Compound": "O=C1C(=Cc2ccccc2)CN(C(=O)c2cccc(C(=O)N3CC(=Cc4ccccc4)C(=O)C(=Cc4ccccc4)C3)c2)CC1=Cc1ccccc1", "cell line": "MOLT-4/C8 and CEM T-lymphocytes", "assay": "cytotoxicity", "IC50": "24.3 µM"}
{"Compound": "COc1cccc(/C=C/C(=O)/C=C/c2cccc(OC)c2OC)c1OC", "cell line": "MGC-803", "assay": "cell growth or viability, MTT", "setting": "72 h", "IC50": "4.6 µM"}
{"Compound": "CCn1[c](=[Au-2]([Cl])([Cl])[Cl])n(CC)c2ccccc21", "cell line": "RC-124 kidney epithelial", "assay": "cell proliferation, crystal violet staining", "setting": "96 h", "IC50": "6.3 ± 2 µM"}
{"Compound": "Brc1ccc(-c2cc3ccccc3[nH]2)cc1", "cell line": "HEK293 NF-κB luciferase reporter", "assay": "reporter gene, refers to: NF-κB", "setting": "6 h, added: TNFα", "IC50": "12.5 ± 2 µM"}
{"note": "Excerpt of the above:"}
{"Compound": "COc1cc(C(=O)c2oc3ccccc3c2NC(C)=O)cc(OC)c1OC", "cell line": "L1210", "assay": "cell growth or viability", "setting": "24 h", "IC50": "> 100 µM"}
{"Compound": "Oc1cccc(-c2nc(N3CCOCC3)c3oc4ncccc4c3n2)c1", "cell line": "IGROV-1", "assay": "AKT Ser473 phosphorylation, inhibitor, electrochemiluminescent immunoassay", "setting": "2 h", "IC50": "0.018 ± 0.002 µM"}
